# Results collected from several papers.
# Parts stem from different laboratories: compare values within a part only. Changes are numbered by the printed parent chain.
# Sequence of UniProt Q9FX25 (whole entry, looked up): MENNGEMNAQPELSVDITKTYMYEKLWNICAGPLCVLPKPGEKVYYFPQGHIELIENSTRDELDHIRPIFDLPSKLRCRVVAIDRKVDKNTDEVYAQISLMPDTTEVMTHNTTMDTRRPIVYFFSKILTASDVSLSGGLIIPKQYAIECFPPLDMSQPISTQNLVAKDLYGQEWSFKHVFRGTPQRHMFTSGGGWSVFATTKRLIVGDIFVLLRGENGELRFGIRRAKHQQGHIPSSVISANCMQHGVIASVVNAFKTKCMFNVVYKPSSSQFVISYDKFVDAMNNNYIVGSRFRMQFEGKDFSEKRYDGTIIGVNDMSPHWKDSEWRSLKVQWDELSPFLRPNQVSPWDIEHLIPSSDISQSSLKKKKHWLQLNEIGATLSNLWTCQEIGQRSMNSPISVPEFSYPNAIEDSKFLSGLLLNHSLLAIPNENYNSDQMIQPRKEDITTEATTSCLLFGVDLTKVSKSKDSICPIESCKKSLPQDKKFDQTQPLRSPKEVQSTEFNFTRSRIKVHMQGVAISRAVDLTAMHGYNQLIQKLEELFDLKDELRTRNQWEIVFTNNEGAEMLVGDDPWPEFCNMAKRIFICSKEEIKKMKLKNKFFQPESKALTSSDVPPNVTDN
# Sequence of UniProt Q9LQE8 (whole entry, looked up): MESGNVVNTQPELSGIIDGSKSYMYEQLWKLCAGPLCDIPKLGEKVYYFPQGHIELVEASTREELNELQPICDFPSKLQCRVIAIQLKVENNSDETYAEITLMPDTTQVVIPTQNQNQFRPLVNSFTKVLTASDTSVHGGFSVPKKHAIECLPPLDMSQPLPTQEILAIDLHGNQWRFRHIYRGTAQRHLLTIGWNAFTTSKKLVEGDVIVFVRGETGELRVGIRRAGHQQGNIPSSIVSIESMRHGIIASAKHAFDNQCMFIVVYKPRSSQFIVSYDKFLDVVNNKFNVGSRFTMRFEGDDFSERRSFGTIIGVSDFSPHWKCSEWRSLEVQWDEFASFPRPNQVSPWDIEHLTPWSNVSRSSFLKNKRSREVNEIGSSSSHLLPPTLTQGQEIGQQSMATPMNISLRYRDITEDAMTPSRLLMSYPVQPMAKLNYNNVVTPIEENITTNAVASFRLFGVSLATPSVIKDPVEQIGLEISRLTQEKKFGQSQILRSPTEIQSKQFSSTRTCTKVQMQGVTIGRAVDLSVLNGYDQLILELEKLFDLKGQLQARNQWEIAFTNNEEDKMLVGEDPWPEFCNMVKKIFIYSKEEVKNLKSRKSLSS
# Sequence of UniProt Q9SKN5 (whole entry, looked up): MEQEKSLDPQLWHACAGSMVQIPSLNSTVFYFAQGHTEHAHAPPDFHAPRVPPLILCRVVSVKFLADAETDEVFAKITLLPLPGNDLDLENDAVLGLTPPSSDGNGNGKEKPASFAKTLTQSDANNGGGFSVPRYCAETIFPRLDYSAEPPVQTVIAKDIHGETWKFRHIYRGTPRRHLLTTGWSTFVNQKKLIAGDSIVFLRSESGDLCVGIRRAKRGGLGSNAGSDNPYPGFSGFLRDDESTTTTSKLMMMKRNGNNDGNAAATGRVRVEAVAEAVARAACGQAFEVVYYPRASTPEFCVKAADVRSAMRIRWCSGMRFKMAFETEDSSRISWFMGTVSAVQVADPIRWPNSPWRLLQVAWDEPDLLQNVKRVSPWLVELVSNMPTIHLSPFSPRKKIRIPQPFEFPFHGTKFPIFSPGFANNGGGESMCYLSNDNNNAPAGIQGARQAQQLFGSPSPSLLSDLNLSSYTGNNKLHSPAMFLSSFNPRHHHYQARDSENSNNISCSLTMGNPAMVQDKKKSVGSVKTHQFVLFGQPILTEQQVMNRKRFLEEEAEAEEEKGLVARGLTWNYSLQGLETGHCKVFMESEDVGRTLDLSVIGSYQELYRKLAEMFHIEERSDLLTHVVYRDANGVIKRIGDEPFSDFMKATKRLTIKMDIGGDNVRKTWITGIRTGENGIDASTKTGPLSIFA
# Sequence of UniProt Q8RYC8 (whole entry, looked up): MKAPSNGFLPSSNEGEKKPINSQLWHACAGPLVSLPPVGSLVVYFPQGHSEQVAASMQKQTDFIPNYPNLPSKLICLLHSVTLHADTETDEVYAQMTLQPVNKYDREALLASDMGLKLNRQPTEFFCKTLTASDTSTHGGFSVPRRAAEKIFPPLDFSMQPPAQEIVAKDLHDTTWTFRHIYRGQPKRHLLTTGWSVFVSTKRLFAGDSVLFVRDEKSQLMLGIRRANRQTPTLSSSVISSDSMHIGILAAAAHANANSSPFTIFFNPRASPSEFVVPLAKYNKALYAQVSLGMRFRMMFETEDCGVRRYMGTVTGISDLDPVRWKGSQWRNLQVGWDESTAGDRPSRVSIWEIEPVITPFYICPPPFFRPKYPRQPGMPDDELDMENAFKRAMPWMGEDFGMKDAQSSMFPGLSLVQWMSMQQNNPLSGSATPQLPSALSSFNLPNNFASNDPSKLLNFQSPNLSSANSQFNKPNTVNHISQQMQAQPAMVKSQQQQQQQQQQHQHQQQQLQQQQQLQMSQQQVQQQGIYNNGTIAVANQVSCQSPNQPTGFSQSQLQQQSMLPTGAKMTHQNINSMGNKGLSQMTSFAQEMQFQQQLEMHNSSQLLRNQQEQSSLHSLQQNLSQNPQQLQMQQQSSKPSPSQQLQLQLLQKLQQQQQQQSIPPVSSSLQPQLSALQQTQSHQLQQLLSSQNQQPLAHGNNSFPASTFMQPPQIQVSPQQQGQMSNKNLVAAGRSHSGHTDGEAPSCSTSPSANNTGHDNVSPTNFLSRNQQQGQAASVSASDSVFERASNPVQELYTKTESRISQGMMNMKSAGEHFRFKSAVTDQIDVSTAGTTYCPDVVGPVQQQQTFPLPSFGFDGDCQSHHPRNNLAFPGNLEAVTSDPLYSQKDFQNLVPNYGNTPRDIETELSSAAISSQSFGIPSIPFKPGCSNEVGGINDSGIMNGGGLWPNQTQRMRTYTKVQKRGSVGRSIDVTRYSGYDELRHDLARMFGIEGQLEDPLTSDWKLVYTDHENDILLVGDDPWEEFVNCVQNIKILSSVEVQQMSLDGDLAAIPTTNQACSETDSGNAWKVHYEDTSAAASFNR

# Set 1 — target: CCNE2, cyclin fold, Cln2 fusion (human); technique: yeast growth competition, sequencing; sample: yeast; notes: strong parent motif; reference: not given; reading: higher = stronger binding
# Starting sequence: viral docking peptide; YKVKRRLVFGADD; partner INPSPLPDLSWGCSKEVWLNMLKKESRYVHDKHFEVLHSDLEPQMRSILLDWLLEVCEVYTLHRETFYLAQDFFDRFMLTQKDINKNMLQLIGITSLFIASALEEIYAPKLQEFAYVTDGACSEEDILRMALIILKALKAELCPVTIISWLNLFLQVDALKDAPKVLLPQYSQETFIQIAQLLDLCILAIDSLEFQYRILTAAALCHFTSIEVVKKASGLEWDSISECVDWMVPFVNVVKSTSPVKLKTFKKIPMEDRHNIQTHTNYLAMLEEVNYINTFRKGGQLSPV
Substitution,normalised enrichment score
YKIKRRLVFGADD [V3I],2.97
YKVQRRLVFGADD [K4Q],3.12
YKVKRNLVFGADD [R6N],1.07
YKVKRRLVFGAED [D12E],5.25
YKVKRTLVFGADD [R6T],1.97
YKVKRLLVFGADD [R6L],1.03
YKVKRRLVFHADD [G10H],4.72
YDVKRRLVFGADD [K2D],4.99
YWVKRRLVFGADD [K2W],3.4
YKVERRLVFGADD [K4E],0.701
YKVKKRLVLGADD [R5K F9L],0.271
YKVKRRLYFGADD [V8Y],5.59
YKVKRRLVFYADD [G10Y],4.44
YKVKRRYVFGADD [L7Y],0.375
YKVKRQLVFGADD [R6Q],3.94
YKVKRRLVFGWDD [A11W],4.95
YLVKRRLVFGADD [K2L],5.19
YKVKRRLLFGADD [V8L],5
YKVKRRLVFGMDD [A11M],5.55
YKVKRRCVFGADD [L7C],0.22
YKVKRRLVFGKDD [A11K],5.36
YKVKRRGVFGADD [L7G],0.513

# Set 2 — technique: RNA Bind-n-Seq; form: RNA; sample: in vitro; tested at: 20 nM; notes: 6-mer, flanks averaged, single round; with: 150 mM LiCl; reference: input library; reading: higher = stronger binding
# Target: TAR DNA-binding protein 43, full length, His tag (TARDBP, Homo sapiens, UniProt Q13148, residues 1-414)
Oligonucleotide,6-mer enrichment (R)
AUUCCC,0.956
UGAGGG,1.32
UGUCUA,0.941
UCAUUU,1.08
GCGCCG,0.992
GCUCCU,0.964
AUGCCA,0.896
CCAGCU,0.9

# Set 3 — Substitution: S140Q; technique: DHFR PCA, deep sequencing; sample: yeast; reference: wild-type fitted maximum; reading: higher = stronger binding
# Target: ABI1, truncated, D143A, DHFR fusion (Arabidopsis thaliana)
# Notes: methotrexate growth selection, single substitutions
# Starting sequence: PYL1, truncated, DHFR fusion (Arabidopsis thaliana); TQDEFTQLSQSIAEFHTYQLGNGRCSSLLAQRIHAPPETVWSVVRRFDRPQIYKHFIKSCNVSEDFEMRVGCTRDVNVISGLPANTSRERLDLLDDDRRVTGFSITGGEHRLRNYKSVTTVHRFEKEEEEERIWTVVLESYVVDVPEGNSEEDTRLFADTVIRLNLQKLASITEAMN
setting,relative binding score [%]
with: (+)-ABA 2500 µM,56.5
with: (+)-ABA 710 µM,30.7
with: (+)-ABA 0.032 µM,7.3
with: (+)-ABA 200 µM,6.46
with: (+)-ABA 58 µM,7.98
with: (+)-ABA 0 µM,8.41

# Set 4 — Sequence: B1 (ARF9 519-638); technique: two-hybrid; notes: weak activation fusion; reading: higher = firmer interaction
# T1: itself; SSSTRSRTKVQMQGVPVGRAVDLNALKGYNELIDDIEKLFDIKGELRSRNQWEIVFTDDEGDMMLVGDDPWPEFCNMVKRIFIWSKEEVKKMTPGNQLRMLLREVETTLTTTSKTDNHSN
# B1: ARF9 519-638 (Arabidopsis thaliana, UniProt Q9XED8); chain SSSTRSRTKVQMQGVPVGRAVDLNALKGYNELIDDIEKLFDIKGELRSRNQWEIVFTDDEGDMMLVGDDPWPEFCNMVKRIFIWSKEEVKKMTPGNQLRMLLREVETTLTTTSKTDNHSN
partner,scale,positive tests
"ARF19 948-1086 (Arabidopsis thaliana, UniProt Q8RYC8)",reference: out of 4 tests,0
"ARF13 (Arabidopsis thaliana, UniProt Q9FX25)",reference: out of 4 tests,0
"ARF12 500-593 (Arabidopsis thaliana, UniProt Q9XID4)",reference: out of 4 tests,0
"ARF14 497-605 (Arabidopsis thaliana, UniProt Q9LQE8)",reference: out of 3 tests,0
"T1, itself",reference: out of 4 tests,1
"ARF10 575-693 (Arabidopsis thaliana, UniProt Q9SKN5)",reference: out of 4 tests,0

# Set 5 — technique: protein-binding microarray; form: double-stranded DNA, one strand shown; sample: in vitro; tested at: 250 nM; notes: 60-bp whole probe; with: salmon DNA 0.4 mg/ml; reference: random background probes; reading: higher = stronger binding; all sequences stand within: GCCTAGCAC … GTCTTGATTCGCTTGACGCTGCTG
# Target: Interferon regulatory factor 7, full length, phosphomimetic (IRF7, Homo sapiens, UniProt Q92985, residues 1-503, S101K/S471D/S472D/S475D/S476D/S477D/S483D/S484D/S487D)
# Residues (chain): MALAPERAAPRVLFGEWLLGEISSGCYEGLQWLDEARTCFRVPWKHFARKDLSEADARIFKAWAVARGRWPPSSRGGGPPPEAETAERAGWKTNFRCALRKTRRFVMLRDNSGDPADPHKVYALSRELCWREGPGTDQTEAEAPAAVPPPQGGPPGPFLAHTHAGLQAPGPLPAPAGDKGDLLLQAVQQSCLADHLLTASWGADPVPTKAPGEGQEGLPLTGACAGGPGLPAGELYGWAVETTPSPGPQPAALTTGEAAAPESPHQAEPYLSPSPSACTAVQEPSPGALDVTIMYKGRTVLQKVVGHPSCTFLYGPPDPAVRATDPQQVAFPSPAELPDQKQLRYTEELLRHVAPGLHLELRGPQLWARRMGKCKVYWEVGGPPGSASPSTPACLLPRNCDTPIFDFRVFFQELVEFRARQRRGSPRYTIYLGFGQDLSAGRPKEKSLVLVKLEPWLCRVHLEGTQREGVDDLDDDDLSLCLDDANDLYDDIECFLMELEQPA
Oligonucleotide,log fluorescence
TTAAATTTCGGGTATCGATTAGTGCTA,1.9 z-score
TTAGACATCAGTATCGATTAGTGCTAG,0.725 z-score
ACCTATGTGTACCACTAGACGTGCTAG,0.161 z-score
GTGACTCTGAACCTTGGGCTGTGCTAG,0.274 z-score
TCACATCTAGTTCTGCTACTGTGCTAG,0.272 z-score
GGCGGTTTCCTTTTCCTGACGTGCTAG,6.55 z-score
GACGATATGGGGTATCGAGACGTGCTA,-0.515 z-score
TTATGTTTCGACTATCGGTTAGTGCTA,2.42 z-score

# Some of these lines once more (set 5):
Oligonucleotide,log fluorescence
GTGACTCTGAACCTTGGGCTGTGCTAG,0.274 z-score
TCACATCTAGTTCTGCTACTGTGCTAG,0.272 z-score
GGCGGTTTCCTTTTCCTGACGTGCTAG,6.55 z-score
